Measured values pooled from the literature.
Every numbered part comes from another study and shows a few of its results, in no order. Changes are numbered by the printed parent chain.

Block 1 — target: CCND3, cyclin fold, Cln2 fusion (human); method: yeast growth competition, sequencing; matrix: yeast; setting: weak parent motif; reference: not given; direction: higher = stronger binding
Starting sequence: SLBP docking peptide (human); ARYKRKLLINDFG; partner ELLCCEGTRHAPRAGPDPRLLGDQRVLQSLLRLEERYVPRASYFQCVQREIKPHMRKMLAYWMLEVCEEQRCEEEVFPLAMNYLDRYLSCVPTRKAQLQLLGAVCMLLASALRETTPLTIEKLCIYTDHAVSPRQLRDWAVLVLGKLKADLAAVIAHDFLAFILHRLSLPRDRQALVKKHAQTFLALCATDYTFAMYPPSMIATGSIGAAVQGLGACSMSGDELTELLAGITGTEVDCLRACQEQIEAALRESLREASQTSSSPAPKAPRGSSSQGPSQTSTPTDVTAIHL
`F12Y` — result for “normalised enrichment score”: 0.237.
`R2V`: “normalised enrichment score” 0.143.
For `R2W`, “normalised enrichment score” read 0.141.
`K4D`: “normalised enrichment score” 0.0818.
`N10Y`: “normalised enrichment score” 0.128.
`I9L`: “normalised enrichment score” 0.147.
Under “normalised enrichment score”, `F12E` is recorded as 0.154.
For `I9E`, “normalised enrichment score” read 0.147.
`N10W` — result for “normalised enrichment score”: 0.157.
Under “normalised enrichment score”, `G13H` is recorded as 0.112.
`K4G` — result for “normalised enrichment score”: 0.138.
For `G13A`, “normalised enrichment score” read 0.133.
For `N10M`, “normalised enrichment score” read 0.139.
`D11H` — result for “normalised enrichment score”: 0.0718.
`L7F` — result for “normalised enrichment score”: 0.154.
`A1Y` — result for “normalised enrichment score”: 0.0862.
`Y3T`: “normalised enrichment score” 0.117.
Under “normalised enrichment score”, `N10T` is recorded as 0.164.
`D11W`: “normalised enrichment score” 0.0679.
Under “normalised enrichment score”, `Y3L` is recorded as 0.2.
`K4V` — result for “normalised enrichment score”: 0.121.
`R5K`: “normalised enrichment score” 0.322.
`A1E`: “normalised enrichment score” 0.111.
Under “normalised enrichment score”, `D11E` is recorded as 0.2.
`L7V`: “normalised enrichment score” 0.107.

Block 2 — method: RNA Bind-n-Seq; form: RNA; matrix: in vitro; tested at: 200 nM; setting: whole 134-nt RNA, ends assumed; added: 150 mM KCl; reference: input library; direction: higher = stronger binding
Target: Ras GTPase-activating protein-binding protein 1, full length (G3BP1, Homo sapiens, UniProt Q13283)
UniProt Q13283, sequence (whole entry, looked up): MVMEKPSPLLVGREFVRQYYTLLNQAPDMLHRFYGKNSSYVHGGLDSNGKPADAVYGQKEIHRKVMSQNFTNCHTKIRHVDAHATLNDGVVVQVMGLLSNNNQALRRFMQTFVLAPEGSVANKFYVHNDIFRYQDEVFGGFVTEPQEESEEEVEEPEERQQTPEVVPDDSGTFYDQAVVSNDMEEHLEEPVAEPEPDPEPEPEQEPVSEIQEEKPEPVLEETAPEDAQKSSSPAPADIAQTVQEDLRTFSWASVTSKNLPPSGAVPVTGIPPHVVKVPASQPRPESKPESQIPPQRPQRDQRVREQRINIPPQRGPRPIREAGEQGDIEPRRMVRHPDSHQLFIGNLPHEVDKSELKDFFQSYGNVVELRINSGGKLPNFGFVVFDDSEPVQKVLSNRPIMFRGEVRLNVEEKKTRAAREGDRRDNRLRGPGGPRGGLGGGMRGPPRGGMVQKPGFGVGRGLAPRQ
Shared flanks, not repeated: GGGAGUUCUACAGUCCGACGAUC … UGGAAUUCUCGGGUGUCAAGG
With `AGUCCUGUGCUACACAUCGUAUGUACCGAAUCGGAAAAAAAGGAAAAAAAGGAAAGGAAAGUAUUAUGUUACGCCGUUCGGAUCUGCACU` the log2 enrichment was -1.45.
With `AGUCCUGUGCUACACAUCGUAUGUACCGAAUCGGUUUUUGGGUUUUUGGUUUUUGGGAAAGUAUUAUGUUACGCCGUUCGGAUCUGCACU` the log2 enrichment was -1.41.
With `CAAGUCCUGUGCUACACAUCGUAUGUACCGAAUCGGGAAAGGGGAAAGGAAAGGGGAAAGUAUUAUGUUACGCCGUUCGGAUCUGCACUU` the log2 enrichment was 0.303.
`UCCUGUGCUACACAUCGUAUGUACCGAAUCAAACCCAAACCCCCCCAAACCCCCCCAAAAAAGUAUUAUGUUACGCCGUUCGGAUCUGCA` gave a log2 enrichment of 0.117.
With `ACCAUGCAGGUGGGCAUCUUUGGGAAGUGGGGCAAGGGGGGGAUAGGGAGGGGGGUAACACUUUGGGAACAGGUGGUCCCAAAACGUUUC` the log2 enrichment was 0.879.
For `UGGGAGGUGGAUUUUGUUUAUUUUUUUAGCUCAUUUCCAGGGGUGGGAAUUUUUUUUUAAUAUGUGUCAUGAAUAAAGUUGUUUUAGAAA`, the log2 enrichment was 0.223.
`UCAAGUCCUGUGCUACACAUCGUAUGUACCGAAUCGGAAAGGAAAGGUUUUUGGAAAGUAUUAUGUUACGCCGUUCGGAUCUGCACUUCC` has a log2 enrichment of -1.19.
`UCAAGUCCUGUGCUACACAUCGUAUGUACCGAAUCGGGAAAGGGAGGGAAAGGGAAAGUAUUAUGUUACGCCGUUCGGAUCUGCACUUCC` has a log2 enrichment of 1.07.
For `AAGUCCUGUGCUACACAUCGUAUGUACCGAAUCGGGGAAAGGGGUGGGGUUUGGGGAAAGUAUUAUGUUACGCCGUUCGGAUCUGCACUU`, the log2 enrichment was 0.433.
`UGGGAGGUGGAUUUUGUUUAUUUUUUUAGCUCAUUUCCAGGGGUGGGAAUUUUUUUUUAAUAUGUGUCAUCAAUAAAGUUGUUUUUGAAA` gave a log2 enrichment of 0.38.
For `UAGCAAGCCAAAUUACAGCAGCAGAUGGACCUGCAGAAAAAUCACAUUUUCCGUCUGACUCAAGGACUGCAAGAAGCUCUAGAUCGGGCU`, the log2 enrichment was -1.84.
The log2 enrichment of `CCUGUGCUACACAUCGUAUGUACCGAAUCGGGGUGGGGAAAAAAAGGGGUUUUUUUGGGGAAAGUAUUAUGUUACGCCGUUCGGAUCUGC` is reported as 0.108.
`CACAGACAACACGCACCCACACAGACACAGAGGGAAGGGGUAGGGAUGGGGACAGGGUGCACAGCAGGGCGGGGUAGGACCCCAGCCCCU` has a log2 enrichment of 1.78.
`UCCUCAAGUCCUGUGCUACACAUCGUAUGUACCGAAUCGGGGAGGAGGGAGGAAAGUAUUAUGUUACGCCGUUCGGAUCUGCACUUCCAG` gave a log2 enrichment of 0.519.

Block 3 — method: protein binding microarray; form: double-stranded DNA, one strand shown; matrix: in vitro; tested at: not given; reference: not given; direction: higher = stronger binding
Target: Histone acetyltransferase KAT6A, winged helix 2, GST fusion (KAT6A, Homo sapiens, UniProt Q92794, residues 85-181)
Setting: 8-mer, flanks averaged, mean of 2 arrays, mostly near background
Construct (chain): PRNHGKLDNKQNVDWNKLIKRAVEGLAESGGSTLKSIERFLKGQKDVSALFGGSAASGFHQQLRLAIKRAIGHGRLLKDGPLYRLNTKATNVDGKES
For `CAGAGATG`, the E-score was -0.00783.
With `CAAATCAG` the E-score was 0.0248.
With `CCTGCACG` the E-score was 0.033.
The E-score of `AAAGTACC` is reported as 0.0309.
The E-score of `GTCCACTA` is reported as -0.132.
For `GTACGTGA`, the E-score was -0.218.
`CAGGCGAA` gave an E-score of 0.184.
For `ACGAGAAG`, the E-score was -0.0925.
`CGCGGGAG` has an E-score of 0.204.
For `CTTTTGGC`, the E-score was 0.144.
The E-score of `CGTCATAA` is reported as -0.121.
`AGCTTAGA` gave an E-score of -0.0055.
`AAACGGAG` gave an E-score of 0.11.
With `AGCTAGCC` the E-score was -0.0101.
With `GCCCGTCA` the E-score was -0.0123.
`CTGTTTGA` has an E-score of -0.0176.
`GCGGCTAA` has an E-score of 0.161.
`AACACAAT` has an E-score of -0.0272.
`CGATTCTC` gave an E-score of 0.0657.

Block 4 — method: protein-binding microarray; form: double-stranded DNA, one strand shown; matrix: in vitro; tested at: not given; direction: higher = stronger binding
Target: Protein max, full length (MAX, Homo sapiens, UniProt P61244-2, residues 1-151)
Setting: k-mer, scored over probes, only values ≥0.25
`CTCATGGC` gave an E-score of 0.371.
`ACGCTGTG` has an E-score of 0.252.
For `AAAACATG`, the E-score was 0.271.
For `ATGCGCCA`, the E-score was 0.315.
`ACCCATGC` gave an E-score of 0.413.
For `CGTGGTGA`, the E-score was 0.355.
With `ACGCACAC` the E-score was 0.355.
With `ACCTGCAC` the E-score was 0.262.
The E-score of `AGCTCACG` is reported as 0.312.
`ACATGGGC` gave an E-score of 0.343.
For `ACGTGAAT`, the E-score was 0.304.
The E-score of `AAATGTGA` is reported as 0.286.
For `GGGCGGGA`, the E-score was 0.256.
With `AACATATG` the E-score was 0.296.
For `AGTGCACG`, the E-score was 0.372.
`GGTGGGGA` has an E-score of 0.258.
The E-score of `CAGGCATG` is reported as 0.379.
The E-score of `ACGTTCCT` is reported as 0.269.
`CACGTTCC` has an E-score of 0.398.
The E-score of `AGCGCGTG` is reported as 0.451.
`ATGCTTTC` gave an E-score of 0.323.
With `CACGAGCC` the E-score was 0.319.
With `GCACGAGA` the E-score was 0.395.
The E-score of `ACGAGGGA` is reported as 0.344.
For `ACACGTTA`, the E-score was 0.386.

Block 5 — method: RNA Bind-n-Seq; form: RNA; matrix: in vitro; tested at: 365 nM; reference: no-protein control; direction: higher = stronger binding
Target: RNA binding protein fox-1 homolog 2, RRM domain, GST-SBP tag (RBFOX2, Homo sapiens, UniProt O43251-10, residues 100-194)
Setting: natural RNA segment, single round, ends assumed
Shared flanks, not repeated: GGGAGUUCUACAGUCCGACGAUC … UGGAAUUCUCGGGUGCCAA
Construct (chain): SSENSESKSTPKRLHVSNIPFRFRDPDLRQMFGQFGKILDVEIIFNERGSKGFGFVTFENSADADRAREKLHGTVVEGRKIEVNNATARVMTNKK
`UACAUUAAAAAACAAACCUCUCUCUAUAUAUAUUUAUAAAUGAGAACUGUUGGAUGACACCUUUGACAUAUCAGCCAAUAUCAAUCAAGCUGAAGACUCCAGACACUGUC`: “RBNS enrichment (R)” 0.588.
`GUGUGUGUGCGCGCGCGCGCAUGUGCGCAUACUGUGUAAUGUUGGAAAAGGGAUGAAAUUGAAGAAACUGAAACUUCACGGAAUUUGGAAGAGUGGUUUUAACAUGGGAC`: “RBNS enrichment (R)” 1.31.
`AGCCAGUUACAGCUCCCCGGCUCUUCUGUGUGGCAGAGCGUCGUUUCCGGGCCCUCAGGGCUGGGGAGCUCAGUUCCCAUUGCUUGUGCUCAGGGCUGAGUCUUAAAGAA`: “RBNS enrichment (R)” 1.73.
For `UAAAACUGGUGGGUAGCUGGGCUGUCCGUUACCACCACAGCUACAUCUUCUGUUUCUUUGAAUAGAAAGCACCACAGUGUUUUGCACUUGCCUCCAGUAAAGUGCCCUGG`, “RBNS enrichment (R)” read 0.318.
`AGAUCGCACUGGAAGAUUUUAUAAAAGAAUUUUUGUGGGUCGGGGGGACAGUAAACUUCCUGGGCCACGUGGGUCCUUCAGGAGUUUUUCAGGCAAGUUUUUCCUCUGUU`: “RBNS enrichment (R)” 0.549.
`UUUUUAUGUAUUCCUGUUUAUUUAUUUACUGCCACGCUACUGAUAUUCAGACCUUCAUGAUCAUCCAUCUGGUGAGCAGAGCUUCAUUUGUAUAUAACACUUUCAGAGCC`: “RBNS enrichment (R)” 0.539.
For `AAUGUUCCCUUCACAUUGAAUCAAAUACAAAUCAGCACAGAUACUGUUUCCAGUUUUUAAAAAUGUAAUAUUAUGGAAAGUAUUUUGCUUCAAGUUGAAUAUGUAUUGUG`, “RBNS enrichment (R)” read 0.888.
`AUCAGCCUAGGAGAGCAGAUGCAGCUCCAGGGGCUCGACUUAUAGCCAGUUACAGCUCCCCGGCUCUUCUGUGUGGCAGAGCGUCGUUUCCGGGCCCUCAGGGCUGGGGA` — result for “RBNS enrichment (R)”: 0.285.
Under “RBNS enrichment (R)”, `AUUGGUCUUAGUGCGUUUGUGCCCUUUGUUCUGGUCUGACUCUUGCGAAUCUCAGAGCAGGAGAAGUUGCAGCUUACUGAUCCCUCAGUGCUCACAGUACUCAUGUGGGG` is recorded as 0.316.
Under “RBNS enrichment (R)”, `GACAAACAGACACACUGCCCCGGACAGCAGACAGACAGACACGUUGCCCCGGACAGCAGACAGAAAAACUGCCCCGGACAGCAGACAGACAGACAAACUGCCCCAGACAG` is recorded as 0.44.
`CUCUUCAACAUUCAUGAAGAUUGAAUCCCAAUCGUGGAAUACACAAGCACUUUUCCAUCCCUGGCGGGAUGGGUGGAUAGAACAUUUUUUUUAUUCAGCAUACAUUUUCU`: “RBNS enrichment (R)” 0.5.
Under “RBNS enrichment (R)”, `UCUCAUAGUAUAGAAAUGACAAGCACUGCUGGCUAUAGAGAAAAUGUUAUAAAAAUUGUCAUUGAAUUCUUUAAUGGUGUCCAACCACGAUGAUAUUGCUGAUCAAAAGU` is recorded as 1.53.

Some of these lines once more (block 1):
`L7V`: “normalised enrichment score” 0.107.
`D11H` — result for “normalised enrichment score”: 0.0718.
Under “normalised enrichment score”, `Y3L` is recorded as 0.2.
`F12Y` — result for “normalised enrichment score”: 0.237.
`K4V` — result for “normalised enrichment score”: 0.121.
Under “normalised enrichment score”, `N10T` is recorded as 0.164.
Under “normalised enrichment score”, `F12E` is recorded as 0.154.
